{"data": "Assay results gathered from unrelated publications", "note": "Compare with care: the assays were run in different laboratories. ± marks the error that the study gave."}
{"SMILES": "CCc1nc(C(N)=O)c(Nc2ccc(N3CCC(N4CCN(C)CC4)CC3)c(OC)c2)nc1NC1CCOCC1", "system": "human, mild hepatic impairment, plasma", "setting": "oral, 10 mg, single dose, fasted, geometric LS mean", "Cmax": "8.14 ng/mL"}
{"SMILES": "O=C(c1cccnc1-c1ccncc1)N1CCC(O)(Cc2ccccc2)CC1", "system": "healthy human, plasma", "setting": "oral, 400 mg once daily, day 1, arithmetic mean", "Cmax": "2630 ng/mL"}
{"SMILES": "CNC(=O)c1cccc2cc(Oc3ccnc4cc(OCC5(N)CC5)c(OC)cc34)ccc12", "system": "human", "setting": "oral, 10 mg, single dose, continuous arm", "Cmax": "293 ± 140 ng/mL"}
{"SMILES": "CCCCC1(CCCC)CN(c2ccccc2)c2cc(SC)c(OCC(=O)N[C@@H](C(=O)NCC(=O)O)c3ccccc3)cc2S(=O)(=O)C1", "assay": "LC-MS/MS", "system": "human, plasma", "setting": "oral, 5 mg, single dose, before breakfast", "Cmax": "0.17 ng/mL"}
{"SMILES": "CNCc1ccc(-c2[nH]c3cc(F)cc4c3c2CCNC4=O)cc1", "system": "human patients, plasma", "setting": "oral, 480 mg twice daily, day 1, arithmetic mean", "Cmax": "1150 ng/mL"}
{"SMILES": "N[C@]1(C(=O)O)[C@H]2[C@@H](C[C@@H]1F)[C@@H]2C(=O)O", "system": "human, fed, plasma", "setting": "oral, 5 mg multiple, day 14", "Cmax": "19.9 ng/mL"}
{"SMILES": "COc1cc2c(cc1OC)[C@H]1CC(=O)[C@H](CC(C)C)CN1CC2 (racemic)", "system": "human CYP2D6 extensive metabolizers, plasma", "setting": "oral, 25 mg, fasted, arithmetic mean", "Cmax": "0.29 ng/mL"}
{"SMILES": "O=C(NCc1ccncc1)C12CC3CC(C1)CC(c1ccc(Cl)cc1)(C3)C2", "system": "human patients, plasma", "setting": "oral, 750 mg, day 1 and day 28 combined", "Cmax": "5560 ± 1380 ng/mL"}
{"SMILES": "Cc1cc(C)c2c(c1)[C@@H](N(Cc1cc(C(F)(F)F)cc(C(F)(F)F)c1)c1nnn(C)n1)CCCN2C[C@H]1CC[C@H](C(=O)O)CC1", "system": "human, plasma", "setting": "oral, 300 mg once daily, steady state, geometric mean", "Cmax": "744 ng/mL"}
{"SMILES": "O=C(CCCCCCC(=O)Nc1ccccc1)NO", "system": "human, cycle 1 day 12, steady state, plasma", "setting": "oral, 400 mg, with: bortezomib", "Cmax": "323 ± 307 ng/mL"}
{"SMILES": "COc1c(OCCCN2CCOCC2)ccc2c1N=C(NC(=O)c1cnc(N)nc1)N1CCN=C21", "system": "human cancer patients, plasma", "setting": "intravenous, 0.4 mg/kg weekly, cycle 1 day 15, geometric mean, with: refametinib 50 mg twice daily", "Cmax": "154 ng/mL"}
{"SMILES": "O=C(CCCCCCC(=O)Nc1ccccc1)NO", "system": "human patients, serum", "setting": "oral, 600 mg, cycle -1 day 2, compound alone", "Cmax": "1620 nM"}
{"SMILES": "C=CC(=O)N1CCC(CNc2ncnc(N)c2-c2ccc(Oc3ccccc3)cc2)CC1", "system": "human, plasma", "setting": "75 mg once daily, day 14, multiple dose, geometric mean", "Cmax": "252 ng/mL"}
{"SMILES": "CC(C)(Sc1ccncc1-c1ccc(C#N)c2ccccc12)C(=O)O", "system": "human, plasma", "setting": "oral, 15 mg, with: febuxostat 80 mg", "Cmax": "20.4 ng/mL"}
{"SMILES": "C[C@@H](c1nc(-c2ccc(C#N)cc2)cs1)[C@](O)(Cn1cncn1)c1cc(F)ccc1F", "system": "human, both sexes, plasma", "setting": "oral, 200 mg single dose, with: ketoconazole 200 mg BID", "Cmax": "2400 ng/mL"}
{"SMILES": "COc1cc2ncnc(Nc3ccc(F)c(Cl)c3)c2cc1OCCCN1CCOCC1", "system": "human, plasma", "setting": "oral, 250 mg, mean", "Cmax": "294 ng/mL"}
{"SMILES": "Cc1[nH]c(/C=C2\\C(=O)Nc3ccccc32)c(C)c1CCC(=O)O", "system": "human patients", "setting": "oral, 200 mg/m^2 three times daily, after meal, dose 82", "Cmax": "4680 ± 1490 ng/mL"}
{"SMILES": "NS(=O)(=O)OC[C@@H]1C[C@@H](n2ccc3c(N[C@H]4CCc5ccccc54)ncnc32)C[C@@H]1O", "system": "human", "setting": "intravenous, 8 mg/m^2 single dose, day 1", "Cmax": "59.1 ng/mL"}
{"note": "Some of these lines once more:"}
{"SMILES": "Cc1cc(C)c2c(c1)[C@@H](N(Cc1cc(C(F)(F)F)cc(C(F)(F)F)c1)c1nnn(C)n1)CCCN2C[C@H]1CC[C@H](C(=O)O)CC1", "system": "human, plasma", "setting": "oral, 300 mg once daily, steady state, geometric mean", "Cmax": "744 ng/mL"}
{"SMILES": "O=C(CCCCCCC(=O)Nc1ccccc1)NO", "system": "human, cycle 1 day 12, steady state, plasma", "setting": "oral, 400 mg, with: bortezomib", "Cmax": "323 ± 307 ng/mL"}
